Experimental data collected from several papers.
“And” joins repeats or separate records; there may be more than shown. ± gives the spread as reported.

CN(O)C(=O)CCC(=O)NCCCN(CCCCN(CCCNC(=O)CCC(=O)N(C)O)C(=O)CCC(=O)N(C)O)C(=O)CCC(=O)N(C)O.[89Zr]  intact complex (radio-TLC; aqueous buffer; 3 d, pH 8.5, 37 °C, 89Zr-labelled complex, together with: DTPA 100-fold excess): 99.4 ± 0.6%
CCCCCCCC(=O)OC[C@H](NC(=O)[C@H](CO)NC(=O)CN)C(=O)N[C@@H](Cc1ccccc1)C(=O)N[C@@H](CC(C)C)C(=O)N[C@@H](CO)C(=O)N1CCC[C@H]1C(=O)N[C@@H](CCC(=O)O)C(=O)N[C@@H](Cc1cnc[nH]1)C(=O)N[C@@H](CCC(N)=O)C(=O)N[C@@H](CCCNC(=N)N)C(=O)N[C@H](C(=O)N[C@@H](CCC(N)=O)C(=O)N[C@@H](CCC(N)=O)C(=O)N[C@@H](CCCNC(=N)N)C(=O)N[C@@H](CCCCN)C(=O)N[C@@H](CCC(=O)O)C(=O)N[C@@H](CO)C(=O)N[C@@H](CCCCN)C(=O)N[C@@H](CCCCN)C(=O)N1CCC[C@H]1C(=O)N1CCC[C@H]1C(=O)N[C@@H](C)C(=O)N[C@@H](CCCCN)C(=O)N[C@@H](CC(C)C)C(=O)N[C@@H](CCC(N)=O)C(=O)N1CCC[C@H]1C(=O)N[C@@H](CCCNC(=N)N)C(=O)O)C(C)C  blood pressure (manual cuff, item: mBP; human, chronic HFrEF patients; intravenous infusion, 0.1 µg/kg/min over 120 min, follow-up day 2-5, median): 83 mm Hg
O=C1C2CC3CC1CC(C(=O)N1CCN(c4ccc([N+](=O)[O-])c5ncccc45)CC1)(C3)C2  clearance (ICR mice male, plasma; intravenous, 1 mg/kg): 118 mL/min/kg
CCCCN1C(=O)c2cccc3c(NCCCN4CCOCC4)ccc(c23)C1=O  Stokes shift (DMF): 91 nm
CC(C)(O)c1ncc([S@](N)(=O)=NC(=O)Nc2c3c(cc4c2CCC4)CCC3)s1  subjects with TEAEs (item: vascular disorders; healthy human; oral, 100 mg, CS formulation, fasted): 40%
C=CC(=O)Nc1cc(Nc2nccc(-c3c[nH]c4ccccc34)n2)c(OC)cc1N(C)CCN(C)C  recovery (storage stability; human plasma; 72 h, -80 °C, LLOQ level): 95.6%
O=C(Nc1cnccc1-c1ccc([18F])cc1)c1ccnc(NC(=O)C2CC2)c1  SUV (ex vivo gamma counting; GSK-3β transgenic mice, late-stage, thalamus; intravenous, 120 min, mean, P-gp inhibitor pretreatment, together with: tariquidar 15 mg/kg iv): 0.22
OCC1OC(n2cnc3c(NCc4ccc(Br)s4)ncnc32)C(O)C1O (centres unmarked)  fraction unbound (equilibrium dialysis; rat plasma; 0.05 µg/mL, 4 h, pH 7.4): 0.03
CN1CCCNC(=O)c2cccc(c2)C(=O)NCCCN(C)CCCNc2cccc3c2C(=O)c2cccc(c2C3=O)NCCC1  uric acid (nude mice, serum; dose not given, 10 days): 5.9 ± 0.3 mg/dL
N#C[C@@H]1CC(F)(F)CN1C(=O)CNC(=O)c1ccnc2c(NC(=O)C(N)CCCCNC(=O)CCOCCOCCOCCOCCOCCOCCNC(=O)CN3CCN(CC(=O)[O-])CCN(CC(=O)[O-])CCN(CC(=O)[O-])CC3)cccc12.[68Ga+3] (some centres unmarked)  radiochemical stability (PBS; 60 min, 37 °C, 68Ga-labelled): 99.08 ± 0.6%
CCCC[C@H](OC(C)=O)c1ccccc1C(=O)O  clearance (Sprague-Dawley rats, both sexes, whole blood; intravenous, 1.25 mg/kg single dose): 9.17 ± 1.28 mL/min/kg
C=C(NC(=O)c1csc(-c2nc3c(cc2O)-c2nc(cs2)C(=O)NC(C(C)O)C(=O)NC(=C(C)OC)c2nc(cs2)C(=O)NC2c4nc(cs4)C(=O)NC(COC(=O)c4c5c6c(cccc6n4O)COC(=O)C(OC4CC(C)(O)C(N(C)C)C(C)O4)C2OC5)c2nc-3cs2)n1)C(N)=O (centres unmarked)  Tmax (cynomolgus monkey, plasma; intravenous, 9 mg/kg, single dose, infusion): 19.2 min
O=C(NCC1OC2CCC=CCCC2O1)c1ccc([18F])nc1 (centres unmarked)  tissue uptake (healthy female BALB/c nude mice, bladder; intravenous, 7.4 MBq per mouse, 60 min): 2.9 ± 1.1 %ID/g
Cn1cnc([N+](=O)[O-])c1Sc1ccccc1C(=O)NCCC(N)=O  remaining compound (LC-MS/MS; CD-1 mouse, CD-1 mouse blood; 1 µM, 120 min): 4.21%
CCCCN1C(=O)c2cccc3c(NCCCCCCN4CCOCC4)ccc(c23)C1=O  Stokes shift (DMSO): 89 nm
Cc1cc(NC(=O)C(=O)N2C[C@@H](C)CC[C@@H]2c2ccc3scnc3c2)cnc1N  Kp,uu (mouse orthotopic brain tumour, brain and plasma; oral, 120 mg/kg twice daily; baseline: brain over plasma): ~0.15
CCCCN1C(=O)c2cccc3c(NCCN4CCOCC4)ccc(c23)C1=O  Stokes shift (toluene): 77 nm
N#Cc1cc(NC(=O)C2c3ccccc3C(=O)N(CC(F)(F)F)C2c2ccc[n+]([O-])c2)ccc1F (centres unmarked)  apparent oral clearance increase (human; 1200 mg, unit not given; baseline: other 6 cohorts): 1.5
O=C1c2sc(-c3ccc(N4CCC(CO)CC4)nc3F)nc2CCN1c1cccnc1  concentration (CD1 mouse, plasma; i.v., dose not given, 0.033 h): 1860 ng/mL and 1290 ng/mL and 1460 ng/mL
N#C[C@@H]1CC(F)(F)CN1C(=O)CNC(=O)c1ccnc2c(NC(=O)[C@H](CCCCNC(=O)CCOCCOCCOCCOCCOCCOCCNC(=O)CN3CCN(CC(=O)[O-])CCN(CC(=O)[O-])CCN(CC(=O)[O-])CC3)NC(=O)CCCc3ccc(I)cc3)cccc12.[177Lu+3]  radiochemical stability (human serum; 1 h, 37 °C, 177Lu-labelled): 98.9 ± 0.8%
O=C1c2sc(-c3ccc(N4CCC(F)C4)nc3F)nc2CCN1c1cccnc1 (centres unmarked)  concentration (CD1 mouse, plasma; i.v., dose not given, 0.25 h): 170 ng/mL and 142 ng/mL and 164 ng/mL
C[C@@H](C(=O)O)n1nc(Cn2cc3cc(OCC[18F])c(Cl)cc3n2)c2ccccc2c1=O  brain uptake (PET; C57BL/6 mouse male; 40 min): 0.34 %ID/g
O=C(Nc1cnccc1-c1ccc([18F])nc1)c1ccnc(NC(=O)C2CC2)c1  mean SUV (ex vivo gamma counting; FVB/NJ mice, both sexes, adipose tissue; intravenous, 120 min): 0.051
Cc1cc(C(=O)NC(C)(C)CO)cc(C)n1  plasma peak area (LC-MS metabolite profiling; Sprague-Dawley rat, both sexes, plasma; oral, 100 mg/kg of parent drug, 0.5 (unit not given); higher = more metabolite): 224000 a.u.
O=C(O)CCCOc1ccc([18F])cc1-c1cc(-c2ccccc2C(F)(F)F)n(-c2ccccc2)n1  absorbed radiation dose (OLINDA/EXM extrapolation from mouse; human adult, gallbladder wall): 10.9 µGy/MBq
CCCCN1C(=O)c2cccc3c(NCCCCCCCCCCN4CCOCC4)ccc(c23)C1=O  Stokes shift (chloroform): 83 nm
Cc1nc(N)nc2c1C(=O)N[C@@H](c1ccc(F)cc1-c1cccc(O[11CH3])n1)C2  SUV (ex vivo biodistribution; mice, MDA-MB-231 subcutaneous xenograft, kidneys; 60 min post-injection, baseline, vehicle pre-treatment): 1.7 ± 0.2
Cc1nc2cccc(OCC(C)(C)C(=O)NC(C)C)c2c(N)c1C(=O)O.O=P(O)(O)O  Tmax (male Sprague-Dawley rat, plasma; oral, 30 mg/kg): 26.4 min
COc1ccc(C(N)=O)cn1  plasma concentration (Han Wistar rats, male, plasma; oral, 30 mg/kg, 0.25 h): 77.4 µM
COc1cccc(OC)c1-c1cc(C(=O)NC2(C(=O)O)C3CC4CC(C3)CC2C4)nn1-c1ccc(C(=O)N(C)CCCN(C)C(=O)[C@H](CCCCNC(=O)[C@H](CC(C)C)NC(=O)C2OC2C(=O)O)NC(=O)CN2CCN(CC(=O)[O-])CCN(CC(=O)[O-])CCN(CC(=O)[O-])CC2)cc1C(C)C.[177Lu+3] (mixture of isomers)  tumour-to-stomach ratio (mouse HT-29 xenograft; 24 h, biodistribution; baseline: tumour over stomach): 27.5
CCCCCCCC(=O)[O][Pt]([Cl])([Cl])[O]C(=O)CCCCCCC.N.N  clearance (ICP-MS, item: platinum; nude mice, blood; intravenous, equimolar single dose): 3.47e-06 mg/(ng/mL)/h
C/C(N)=N/C(=N\S(=O)(=O)c1ccc(C(F)(F)F)cc1)N1C[C@H](c2ccccc2)C(c2ccc(Cl)cc2)=N1  Tmax (female cynomolgus monkey, plasma; oral, 18 mg/kg): 240 min
CCCCN1C(=O)c2cccc3c(NCCCCCN4CCOCC4)ccc(c23)C1=O  Stokes shift (dichloromethane): 79 nm
CC(C)Cc1ccc(C(C)C(=O)N[C@@H](CCCCNC(=O)CCOCCOCCOCCOCCOCCOCCNC(=O)CN2CCN(CC(=O)[O-])CCN(CC(=O)[O-])CCN(CC(=O)[O-])CC2)C(=O)Nc2cccc3c(C(=O)NCC(=O)N4CC(F)(F)C[C@H]4C#N)ccnc23)cc1.[177Lu+3] (some centres unmarked)  radiochemical stability (PBS; 24 h, 37 °C, 177Lu-labelled): 98.9 ± 1.7%
COCC1CN(C2CCN(c3cc(OC)c(Nc4ncc(Br)c(Nc5ccc6c(c5P(C)(C)=O)OCCO6)n4)cc3C)CC2)C1  AUC(0-t) (EGFR-mutant NSCLC patients, plasma; oral, 60 mg single dose, geometric mean): 11100 ng·h/mL
CCc1cnc(NC(=O)c2cc(S(=O)(=O)N3CCOCC3)ccc2N(C)C2CCCC2)s1  Calcium (mouse, serum; 10 mg/kg, 3 doses): 10.4 mg/dL
O=C(NS(=O)(=O)c1cccs1)c1cc2ccccc2n1Cc1ccc(Br)c2ccccc12  body weight (KM mouse, chronic hyperuricaemia model; dose not given, day 16): 33.2 g and 31.2 g and 36.6 g and 38 g and 35.2 g and 30.2 g
C=CC(=O)Nc1cc(Nc2nccc(-c3cn(C)c4ccccc34)n2)c(OC)cc1N(C)CCNC  recovery (storage stability; human dried blood spots; 5 h, -80 °C, low QC level): 98.8%
COc1ccc(/C=C/c2nc3c(Nc4ccc(Cl)cc4)ncnc3[nH]2)cc1OC  purity (HPLC; solution, dark; before light exposure): 99.7%
CN(Cc1cc(C2CC2)on1)C(=O)c1cccc(-c2ccc(F)cc2)c1  remaining compound (male ICR/CD-1 mouse, liver microsomes; 2 µM, 120 min, pH 7.5, without ABT): 15.1%
Cc1nc(N)nc2c1C(=O)N[C@@H](c1ccc(F)cc1-c1cccc(OCC[18F])n1)C2  radiochemical stability (HPLC; 120 min post end of synthesis): stable
CC(C)[C@H](NC(=O)[C@H](Cc1c[nH]c2ccccc12)NC(=O)[C@H](CCCNC(=N)N)NC(=O)[C@H](CCCNC(=N)N)NC(=O)[C@@H](NC(=O)[C@@H](NC(=O)[C@H](CCCNC(=N)N)NC(=O)[C@@H](NC(=O)[C@@H](NC(=O)[C@H](CCCNC(=N)N)NC(=O)[C@H](CCCNC(=N)N)NC(=O)[C@@H](NC(=O)[C@H](Cc1c[nH]c2ccccc12)NC(=O)[C@H](CCCNC(=N)N)NC(=O)[C@H](CCCNC(=N)N)NC(=O)[C@@H](NC(=O)[C@H](CCCNC(=N)N)NC(=O)[C@H](CCCNC(=N)N)NC(=O)[C@@H](NC(=O)[C@H](Cc1c[nH]c2ccccc12)NC(=O)[C@H](CCCNC(=N)N)NC(=O)[C@@H](N)CCCNC(=N)N)C(C)C)C(C)C)C(C)C)C(C)C)C(C)C)C(C)C)C(C)C)C(=O)N[C@@H](CCCNC(=N)N)C(=O)N[C@@H](CCCNC(=N)N)C(=O)O  sodium excretion (CD1 mouse, urine; intravenous, 15 mg/kg, 16 h, [14C]-labelled compound): < 22.9 µmol/day/g body weight
COc1cccc(OC)c1-c1cc(C(=O)NC2(C(=O)O)C3CC4CC(C3)CC2C4)nn1-c1ccc(C(=O)N(C)CCOCCOCCN(C)C(=O)[C@H](CCCCNC(=O)[C@H](CC(C)C)NC(=O)C2OC2C(=O)O)NC(=O)CN2CCN(CC(=O)[O-])CCN(CC(=O)[O-])CCN(CC(=O)[O-])CC2)cc1C(C)C.[177Lu+3] (mixture of isomers)  tumour-to-stomach ratio (mouse HT-29 xenograft; 4 h, biodistribution; baseline: tumour over stomach): 5.59
[11CH3]N1CCC(NC(=O)c2cc(-c3c(O)cc(O)cc3Oc3ccc([N+](=O)[O-])cc3)on2)CC1  standardized uptake value (healthy female Wistar rats, blood; intravenous, 10 min): 1.4 ± 0.2 g/mL

A few entries again:
Cc1cc(NC(=O)C(=O)N2C[C@@H](C)CC[C@@H]2c2ccc3scnc3c2)cnc1N  Kp,uu (mouse orthotopic brain tumour, brain and plasma; oral, 120 mg/kg twice daily; baseline: brain over plasma): ~0.15
O=C(Nc1cnccc1-c1ccc([18F])nc1)c1ccnc(NC(=O)C2CC2)c1  mean SUV (ex vivo gamma counting; FVB/NJ mice, both sexes, adipose tissue; intravenous, 120 min): 0.051
OCC1OC(n2cnc3c(NCc4ccc(Br)s4)ncnc32)C(O)C1O (centres unmarked)  fraction unbound (equilibrium dialysis; rat plasma; 0.05 µg/mL, 4 h, pH 7.4): 0.03
